Assay results pooled from the literature.
A part holds a random share of what one study measured. Positions count from the first letter of the parent shown.

Series 1
Target: Interferon regulatory factor 3, full length, phosphomimetic (IRF3, Homo sapiens, UniProt Q14653, residues 1-427, S386D/S396D/S398D/S402D/T404D/S405D)
Technique: protein-binding microarray
Form: double-stranded DNA, one strand shown
Medium: in vitro
Tested at: 2540 nM top
Notes: 60-bp whole probe
Added: salmon DNA 0.4 mg/ml
Relative to: random background probes
Direction: higher = stronger binding
All sequences stand within: GCCTAGCAC … GTCTTGATTCGCTTGACGCTGCTG
Residues (chain): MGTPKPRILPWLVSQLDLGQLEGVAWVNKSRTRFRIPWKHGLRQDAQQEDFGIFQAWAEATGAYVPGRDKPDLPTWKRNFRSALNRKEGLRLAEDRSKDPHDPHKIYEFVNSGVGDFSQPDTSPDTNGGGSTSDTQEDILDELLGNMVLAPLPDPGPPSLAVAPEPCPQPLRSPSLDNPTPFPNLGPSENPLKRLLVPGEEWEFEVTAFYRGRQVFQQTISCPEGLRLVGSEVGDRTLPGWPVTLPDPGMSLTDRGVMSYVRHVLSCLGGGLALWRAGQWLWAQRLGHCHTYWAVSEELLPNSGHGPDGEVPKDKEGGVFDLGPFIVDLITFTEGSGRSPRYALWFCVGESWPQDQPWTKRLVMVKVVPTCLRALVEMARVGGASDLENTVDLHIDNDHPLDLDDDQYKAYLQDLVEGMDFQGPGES
`TCATTTGTCCCTATTTAACTGTGCTAG` — result for “fitted relative affinity”: 1.96 z-score.
Under “fitted relative affinity”, `AGTGAATTAGGTTTCACTTTGTGCTAG` is recorded as 3.64 z-score.
`GACGGTTTCCTTATACTGACGTGCTAG` — result for “fitted relative affinity”: 6.94 z-score.
`GACGAACTGGGGACTGGAGAGGTGCTA`: “fitted relative affinity” -0.735 z-score.
`TTAGGTCTCCGACTGCTTTAGTGCTAG` — result for “fitted relative affinity”: 0.43 z-score.
For `GACGGTAACGGGACTGGGGACGTGCTA`, “fitted relative affinity” read -0.654 z-score.
`TAAGATTTCGGGACTGGATTAGTGCTA` — result for “fitted relative affinity”: 1.32 z-score.
Under “fitted relative affinity”, `GACGGTTTCCTTTTCCTTACGTGCTAG` is recorded as 11.3 z-score.

Series 2
Target: CCNB2, cyclin fold, Cln2 fusion (human)
Technique: yeast growth competition, sequencing
Medium: yeast
Notes: strong parent motif
Relative to: not given
Direction: higher = stronger binding
Starting sequence: viral docking peptide; YKVKRRLVFGADD; partner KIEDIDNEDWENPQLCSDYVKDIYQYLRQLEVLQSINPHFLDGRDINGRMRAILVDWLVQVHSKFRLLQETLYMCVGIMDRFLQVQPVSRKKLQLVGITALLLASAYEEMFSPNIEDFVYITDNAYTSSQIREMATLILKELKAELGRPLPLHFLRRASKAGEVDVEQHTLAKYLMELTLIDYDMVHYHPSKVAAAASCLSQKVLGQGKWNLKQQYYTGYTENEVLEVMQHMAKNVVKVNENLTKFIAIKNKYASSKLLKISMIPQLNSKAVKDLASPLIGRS
Under “normalised enrichment score”, `YKNKRRLVFGADD [V3N]` is recorded as 0.56.
Under “normalised enrichment score”, `YKVLRRLVFGADD [K4L]` is recorded as 0.661.
Under “normalised enrichment score”, `YKVKRILVFGADD [R6I]` is recorded as 0.488.
For `YFVKRRLVFGADD [K2F]`, “normalised enrichment score” read 0.993.
`YKVKRRLVFHADD [G10H]`: “normalised enrichment score” 1.77.
Under “normalised enrichment score”, `YKWKRRLVFGADD [V3W]` is recorded as -0.204.
Under “normalised enrichment score”, `YKVKRRMVFGADD [L7M]` is recorded as 0.576.
Under “normalised enrichment score”, `YKVKRRLEFGADD [V8E]` is recorded as 2.36.
Under “normalised enrichment score”, `YKVCRRLVFGADD [K4C]` is recorded as 0.994.
`YKVKRRLVFGAVD [D12V]`: “normalised enrichment score” 1.02.
`YKVKRHLVFGADD [R6H]` — result for “normalised enrichment score”: 0.748.
`YTVKRRLVFGADD [K2T]`: “normalised enrichment score” 2.36.
For `YKVKRALVFGADD [R6A]`, “normalised enrichment score” read 0.628.
Under “normalised enrichment score”, `YKVKRRLVFIADD [G10I]` is recorded as 1.51.
Under “normalised enrichment score”, `YLVKRRLVFGADD [K2L]` is recorded as 1.75.
For `YKVKRRLVFGRDD [A11R]`, “normalised enrichment score” read 1.42.
For `YKVKRRLVIGADD [F9I]`, “normalised enrichment score” read 0.683.

Series 3
Target: Protein max, full length (MAX, Homo sapiens, UniProt P61244-2, residues 1-151)
Technique: protein-binding microarray
Form: double-stranded DNA, one strand shown
Medium: in vitro
Tested at: not given
Notes: k-mer, scored over probes, only values ≥0.25
Direction: higher = stronger binding
For `ACGGCACG`, the E-score was 0.326.
`ACGCGGAA` has an E-score of 0.286.
For `ATCATATG`, the E-score was 0.31.
The E-score of `AGCCACAT` is reported as 0.369.
The E-score of `AACAGCGT` is reported as 0.305.
`AGAACGAG` has an E-score of 0.262.
`CATGATCC` gave an E-score of 0.257.
The E-score of `GCGTGGAC` is reported as 0.388.

Series 4
Target: HLA class I histocompatibility antigen, A alpha chain, allele A*80:01 (Homo sapiens, UniProt P04439)
Effect on: peptide-MHC binding
Form: peptide
Tested at: concentration not given
`SVFALLPPQ` — result for binding: “inactive”.
For `DTPGERNPY`, binding read “inactive”.
`WLGHPFTPV`: binding “inactive”.

A few entries again (series 4):
`SVFALLPPQ` — result for binding: “inactive”.
For `DTPGERNPY`, binding read “inactive”.
`WLGHPFTPV`: binding “inactive”.
